Experimental data from different studies.
Every numbered part comes from another study and shows a few of its results, in no order. Several values in a cell are separate wells, animals, samples, runs or records.
UniProt Q9NWZ3, sequence (whole entry, looked up): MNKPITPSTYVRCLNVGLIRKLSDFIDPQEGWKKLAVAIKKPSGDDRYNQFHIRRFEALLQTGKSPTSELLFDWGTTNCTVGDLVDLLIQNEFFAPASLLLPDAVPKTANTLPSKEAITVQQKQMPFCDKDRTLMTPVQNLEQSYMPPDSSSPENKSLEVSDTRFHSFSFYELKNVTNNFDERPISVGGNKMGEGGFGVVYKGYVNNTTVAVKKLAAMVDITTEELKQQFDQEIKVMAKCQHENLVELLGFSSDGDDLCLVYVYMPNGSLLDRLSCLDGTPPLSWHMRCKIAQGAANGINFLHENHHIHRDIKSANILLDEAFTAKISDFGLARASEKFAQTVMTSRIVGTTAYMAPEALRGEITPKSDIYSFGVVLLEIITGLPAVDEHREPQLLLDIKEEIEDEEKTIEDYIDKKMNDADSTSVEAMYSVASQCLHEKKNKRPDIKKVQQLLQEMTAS
UniProt Q99759, sequence (whole entry, looked up): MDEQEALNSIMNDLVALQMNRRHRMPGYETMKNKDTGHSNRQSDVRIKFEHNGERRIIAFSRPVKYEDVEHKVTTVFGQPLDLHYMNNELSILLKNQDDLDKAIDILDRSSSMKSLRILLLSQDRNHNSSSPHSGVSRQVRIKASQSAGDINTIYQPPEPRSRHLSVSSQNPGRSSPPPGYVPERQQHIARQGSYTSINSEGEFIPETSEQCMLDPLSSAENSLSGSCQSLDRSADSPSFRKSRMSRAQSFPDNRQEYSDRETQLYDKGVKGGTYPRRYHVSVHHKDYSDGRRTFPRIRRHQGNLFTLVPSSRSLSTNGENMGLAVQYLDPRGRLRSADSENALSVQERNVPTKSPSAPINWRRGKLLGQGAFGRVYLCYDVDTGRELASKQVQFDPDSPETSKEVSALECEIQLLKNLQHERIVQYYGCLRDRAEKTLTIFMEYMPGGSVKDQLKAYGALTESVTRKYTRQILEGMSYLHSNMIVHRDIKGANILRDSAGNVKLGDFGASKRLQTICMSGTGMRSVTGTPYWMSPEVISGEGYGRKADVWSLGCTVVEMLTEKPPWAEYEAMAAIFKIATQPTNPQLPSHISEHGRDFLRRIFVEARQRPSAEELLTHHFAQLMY

Sample 1 — read-out: cell-free assay; technique: competition with immobilised ligand; concentration: 1 µM
Structure (SMILES): CCOCCn1cc(C(=O)Nc2ccc(-n3nc(-c4cccnc4)cc3C(F)(F)F)cn2)ccc1=O
| target | remaining binding [%] |
| --- | --- |
| Calcium/calmodulin-dependent protein kinase kinase 1 (CAMKK1, Homo sapiens, UniProt Q8N5S9) | 100 |
| Serine/threonine-protein kinase Nek9 (NEK9, Homo sapiens, UniProt Q8TD19) | 100 |
| Mitogen-activated protein kinase 12 (MAPK12, Homo sapiens, UniProt P53778) | 65 |
| Epidermal growth factor receptor (EGFR, Homo sapiens, UniProt P00533) | 100 |
| Mitogen-activated protein kinase 14 (MAPK14, Homo sapiens, UniProt Q16539) | 100 |
| Phosphatidylinositol 4,5-bisphosphate 3-kinase catalytic subunit alpha isoform (PIK3CA, Homo sapiens, UniProt P42336, C420R) | 93 |
| Serine/threonine-protein kinase PAK 4 (PAK4, Homo sapiens, UniProt O96013) | 100 |
| TGF-beta receptor type-2 (TGFBR2, Homo sapiens, UniProt P37173) | 100 |
| MAP/microtubule affinity-regulating kinase 3 (MARK3, Homo sapiens, UniProt P27448) | 100 |
| Serine/threonine-protein kinase OSR1 (OXSR1, Homo sapiens, UniProt O95747) | 92 |
| Testis-specific serine/threonine-protein kinase 3 (TSSK3, Homo sapiens, UniProt Q96PN8) | 100 |
| Mitogen-activated protein kinase kinase kinase 2 (MAP3K2, Homo sapiens, UniProt Q9Y2U5) | 94 |
| Tyrosine-protein kinase receptor UFO (AXL, Homo sapiens, UniProt P30530) | 91 |
| Tyrosine-protein kinase JAK2, JH1 (JAK2, Homo sapiens, UniProt O60674) | 91 |
| Serine/threonine-protein kinase TBK1 (TBK1, Homo sapiens, UniProt Q9UHD2) | 76 |
| Fibroblast growth factor receptor 3 (FGFR3, Homo sapiens, UniProt P22607, G697C) | 100 |
| Tyrosine-protein kinase Lck (LCK, Homo sapiens, UniProt P06239) | 100 |
| Mitogen-activated protein kinase kinase kinase 10 (MAP3K10, Homo sapiens, UniProt Q02779) | 100 |
| Serine/threonine-protein kinase TAO2 (TAOK2, Homo sapiens, UniProt Q9UL54) | 75 |
| Protein kinase C eta type (PRKCH, Homo sapiens, UniProt P24723) | 100 |
| Tyrosine-protein kinase CSK (CSK, Homo sapiens, UniProt P41240) | 100 |
| Tyrosine-protein kinase receptor Tie-1 (TIE1, Homo sapiens, UniProt P35590) | 81 |
| 5'-AMP-activated protein kinase catalytic subunit alpha-2 (PRKAA2, Homo sapiens, UniProt P54646) | 100 |
| Interleukin-1 receptor-associated kinase 4 (IRAK4, Homo sapiens, UniProt Q9NWZ3) | 96 |
| Serine/threonine-protein kinase 33 (STK33, Homo sapiens, UniProt Q9BYT3) | 94 |

Sample 2 — cell line: mouse MPNST tumor cells; technique: high-content nuclear imaging; measured: cell number; concentration: 10 µM; time: 12 h; notes: mean of 2 replicates; relative to: plate mean; reading: higher = more cells
| SMILES | nuclei count |
| --- | --- |
| CNCCN1CCC(OCc2ccccc2)CC1 | 2.02 z-score |
| O=C(Nc1c(Cl)cncc1Cl)c1ccc(OC(F)F)c(OCC2CC2)c1 | -0.742 z-score |
| CC[C@@H](CO)NCCN[C@@H](CC)CO | 0.399 z-score and 1.61 z-score |
| Cc1ccccc1OCC(O)CO (stereo not drawn) | 1.08 z-score |
| O=C(Nc1cccc(C(F)(F)F)c1)Nc1ccc(Br)cc1-c1nn[nH]n1 | -0.274 z-score |
| N[C@@H](CC(=O)N1CCn2c(nnc2C(F)(F)F)C1)Cc1cc(F)c(F)cc1F | 1.15 z-score and 3.02 z-score |
| CO[C@@]1(NC(=O)Cc2cccs2)C(=O)N2C(C(=O)O)=C(COC(N)=O)CS[C@@H]21 | -0.115 z-score |

Sample 3 — concentration: 1 µM
Structure (SMILES): COc1ccc2[nH]c3c4[nH]c5ccc(OC)cc5c4c4c(c3c2c1)C(=O)NC4=O
| target | technique | notes | relative to | remaining binding |
| --- | --- | --- | --- | --- |
| MAP/microtubule affinity-regulating kinase 4 (MARK4, Homo sapiens, UniProt Q96L34) | competitive binding panel |  | vehicle | 100% |
| Mitogen-activated protein kinase kinase kinase 3 (MAP3K3, Homo sapiens, UniProt Q99759) | competitive binding panel |  | vehicle | 59% |
| Serine/threonine-protein kinase SIK2 (SIK2, Homo sapiens, UniProt Q9H0K1) | competitive binding panel |  | vehicle | 9.9% |
| Calcium/calmodulin-dependent protein kinase type 1G (CAMK1G, Homo sapiens, UniProt Q96NX5) | competitive binding panel |  | vehicle | 76% |
| RAC-gamma serine/threonine-protein kinase (AKT3, Homo sapiens, UniProt Q9Y243) | competitive binding panel |  | vehicle | 98% |
| G protein-coupled receptor kinase 3 (GRK3, Homo sapiens, UniProt P35626) | competitive binding panel |  | vehicle | 70% |
| Tyrosine-protein kinase ABL1 (ABL1, Homo sapiens, UniProt P00519, E255K) | competitive binding panel |  | vehicle | 64% |
| Leukocyte tyrosine kinase receptor (LTK, Homo sapiens, UniProt P29376) | competitive binding panel |  | vehicle | 58% |
| Epidermal growth factor receptor (EGFR, Homo sapiens, UniProt P00533, del746-750) | competitive binding panel |  | vehicle | 20% |
| Focal adhesion kinase 1 (PTK2, Homo sapiens, UniProt Q05397) | competitive binding | FAK |  | 85% |
| Insulin receptor-related protein (INSRR, Homo sapiens, UniProt P14616) | competitive binding panel |  | vehicle | 95% |
| Interleukin-1 receptor-associated kinase 4 (IRAK4, Homo sapiens, UniProt Q9NWZ3) | competitive binding panel |  | vehicle | 76% |
| Interleukin-1 receptor-associated kinase 3 (IRAK3, Homo sapiens, UniProt Q9Y616) | competitive binding panel |  | vehicle | 66% |

Sample 4 — read-out: enzyme activity; action: inhibitor; concentration: 77 µM; relative to: untreated
Target: DNA polymerase theta, ATPase domain (POLQ, Homo sapiens, UniProt O75417)
UniProt O75417, sequence (whole entry, unmodified, looked up): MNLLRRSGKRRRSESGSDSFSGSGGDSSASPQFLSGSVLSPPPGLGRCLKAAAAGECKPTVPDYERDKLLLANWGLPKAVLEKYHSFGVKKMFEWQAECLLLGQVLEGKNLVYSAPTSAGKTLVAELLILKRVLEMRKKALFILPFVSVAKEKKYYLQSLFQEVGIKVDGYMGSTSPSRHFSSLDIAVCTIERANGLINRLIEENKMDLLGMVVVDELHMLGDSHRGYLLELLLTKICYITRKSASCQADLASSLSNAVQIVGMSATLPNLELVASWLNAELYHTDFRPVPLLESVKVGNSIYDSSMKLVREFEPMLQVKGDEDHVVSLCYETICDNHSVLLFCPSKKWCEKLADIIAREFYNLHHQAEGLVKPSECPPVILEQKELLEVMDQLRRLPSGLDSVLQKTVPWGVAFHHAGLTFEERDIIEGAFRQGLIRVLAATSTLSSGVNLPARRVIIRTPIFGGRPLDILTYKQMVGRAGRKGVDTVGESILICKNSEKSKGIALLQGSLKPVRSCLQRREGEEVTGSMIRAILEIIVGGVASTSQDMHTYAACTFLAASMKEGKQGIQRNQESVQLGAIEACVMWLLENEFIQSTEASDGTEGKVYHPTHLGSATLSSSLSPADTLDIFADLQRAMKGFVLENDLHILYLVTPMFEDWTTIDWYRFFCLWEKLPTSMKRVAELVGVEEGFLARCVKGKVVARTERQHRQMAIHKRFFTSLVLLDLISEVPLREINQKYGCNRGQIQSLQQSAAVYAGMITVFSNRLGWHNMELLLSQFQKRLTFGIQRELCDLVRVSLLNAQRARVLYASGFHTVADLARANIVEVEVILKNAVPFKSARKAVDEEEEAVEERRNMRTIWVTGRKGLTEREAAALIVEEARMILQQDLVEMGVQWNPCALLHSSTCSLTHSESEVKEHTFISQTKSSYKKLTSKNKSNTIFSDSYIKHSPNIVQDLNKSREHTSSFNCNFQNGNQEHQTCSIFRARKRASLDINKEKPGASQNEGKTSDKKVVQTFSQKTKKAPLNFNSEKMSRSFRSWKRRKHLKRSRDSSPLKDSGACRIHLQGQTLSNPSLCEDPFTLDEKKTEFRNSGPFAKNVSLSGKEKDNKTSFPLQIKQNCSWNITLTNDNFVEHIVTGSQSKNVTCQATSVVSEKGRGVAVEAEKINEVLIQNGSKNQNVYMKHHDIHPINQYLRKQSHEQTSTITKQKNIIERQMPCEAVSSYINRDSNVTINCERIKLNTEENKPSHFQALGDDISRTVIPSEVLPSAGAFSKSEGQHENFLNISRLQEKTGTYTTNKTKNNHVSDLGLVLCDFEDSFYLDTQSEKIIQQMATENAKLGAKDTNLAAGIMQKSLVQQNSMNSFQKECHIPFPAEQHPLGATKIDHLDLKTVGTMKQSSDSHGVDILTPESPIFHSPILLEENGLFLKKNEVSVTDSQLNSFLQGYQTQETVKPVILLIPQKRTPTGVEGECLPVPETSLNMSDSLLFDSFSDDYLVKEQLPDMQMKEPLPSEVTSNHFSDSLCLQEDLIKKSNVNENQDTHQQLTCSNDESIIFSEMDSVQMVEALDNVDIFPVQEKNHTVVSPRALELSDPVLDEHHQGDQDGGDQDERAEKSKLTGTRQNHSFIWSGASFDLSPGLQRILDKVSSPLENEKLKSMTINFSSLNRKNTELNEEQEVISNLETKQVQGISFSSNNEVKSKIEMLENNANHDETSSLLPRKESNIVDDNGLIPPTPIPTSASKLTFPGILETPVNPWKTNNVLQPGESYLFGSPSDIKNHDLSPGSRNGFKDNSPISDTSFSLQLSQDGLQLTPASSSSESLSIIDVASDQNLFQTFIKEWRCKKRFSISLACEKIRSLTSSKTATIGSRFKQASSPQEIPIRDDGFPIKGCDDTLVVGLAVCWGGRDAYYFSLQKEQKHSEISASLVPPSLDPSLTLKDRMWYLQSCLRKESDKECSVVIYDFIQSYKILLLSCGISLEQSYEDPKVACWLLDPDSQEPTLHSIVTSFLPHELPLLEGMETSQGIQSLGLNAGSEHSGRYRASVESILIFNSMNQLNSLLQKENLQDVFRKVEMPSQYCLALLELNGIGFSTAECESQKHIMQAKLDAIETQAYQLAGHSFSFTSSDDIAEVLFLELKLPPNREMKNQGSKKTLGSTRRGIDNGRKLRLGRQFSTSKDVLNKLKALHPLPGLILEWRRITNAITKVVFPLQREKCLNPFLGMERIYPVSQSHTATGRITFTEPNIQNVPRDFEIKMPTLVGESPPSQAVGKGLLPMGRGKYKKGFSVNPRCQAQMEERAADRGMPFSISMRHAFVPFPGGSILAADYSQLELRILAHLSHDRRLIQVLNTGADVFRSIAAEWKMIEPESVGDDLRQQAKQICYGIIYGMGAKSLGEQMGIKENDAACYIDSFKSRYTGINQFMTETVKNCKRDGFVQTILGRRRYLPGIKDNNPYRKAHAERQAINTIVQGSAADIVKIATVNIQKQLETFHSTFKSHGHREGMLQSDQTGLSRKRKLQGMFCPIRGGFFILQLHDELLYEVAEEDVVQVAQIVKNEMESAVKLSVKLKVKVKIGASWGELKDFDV
| Structure (SMILES) | remaining activity |
| --- | --- |
| C[C@@H]1C[C@H]2[C@@H]3CCC4=CC(=O)C=C[C@]4(C)[C@@]3(Cl)[C@@H](O)C[C@]2(C)[C@@]1(OC(=O)c1ccco1)C(=O)CCl | 98.3% and 109% |
| CC[N+](CC)(CC)CC | 98.7% |
| N[C@@H](Cc1ccc(O)c(I)c1)C(=O)O | 100% |
| C=CCn1c(=O)c2c(nc(-c3ccc(S(=O)(=O)O)cc3)n2C)n(C)c1=O | 102% |
| CN(C)Cc1cccc(N=C(c2ccccc2)c2c(O)[nH]c3cc(C(=O)N(C)C)ccc23)c1 | 99.1% |
| OC[C@H]1O[C@@H](n2cnc3c(NC4CCCC4)ncnc32)[C@H](O)[C@@H]1O | 99.3% |
| CCn1cc(C(=O)O)c(=O)c2cc(F)c(N3CCNCC3)cc21 | 96.5% |
| CCNC(=O)c1noc(-c2cc(C(C)C)c(O)cc2O)c1-c1ccc(CN2CCOCC2)cc1 | 100% |
| CN(C)CCc1c[nH]c2ccc(Cn3cncn3)cc12 | 99.9% |

Repeated from above (sample 1):
| target | remaining binding [%] |
| --- | --- |
| Mitogen-activated protein kinase kinase kinase 2 (MAP3K2, Homo sapiens, UniProt Q9Y2U5) | 94 |
| Tyrosine-protein kinase receptor UFO (AXL, Homo sapiens, UniProt P30530) | 91 |
| Tyrosine-protein kinase JAK2, JH1 (JAK2, Homo sapiens, UniProt O60674) | 91 |
